Experimental data of several laboratories.
Compare with care: the assays were run in different laboratories. “And” joins repeats or separate records; there may be more than shown. Numbers after ± are the reported error.
Sequence of UniProt P41743 (whole entry, looked up): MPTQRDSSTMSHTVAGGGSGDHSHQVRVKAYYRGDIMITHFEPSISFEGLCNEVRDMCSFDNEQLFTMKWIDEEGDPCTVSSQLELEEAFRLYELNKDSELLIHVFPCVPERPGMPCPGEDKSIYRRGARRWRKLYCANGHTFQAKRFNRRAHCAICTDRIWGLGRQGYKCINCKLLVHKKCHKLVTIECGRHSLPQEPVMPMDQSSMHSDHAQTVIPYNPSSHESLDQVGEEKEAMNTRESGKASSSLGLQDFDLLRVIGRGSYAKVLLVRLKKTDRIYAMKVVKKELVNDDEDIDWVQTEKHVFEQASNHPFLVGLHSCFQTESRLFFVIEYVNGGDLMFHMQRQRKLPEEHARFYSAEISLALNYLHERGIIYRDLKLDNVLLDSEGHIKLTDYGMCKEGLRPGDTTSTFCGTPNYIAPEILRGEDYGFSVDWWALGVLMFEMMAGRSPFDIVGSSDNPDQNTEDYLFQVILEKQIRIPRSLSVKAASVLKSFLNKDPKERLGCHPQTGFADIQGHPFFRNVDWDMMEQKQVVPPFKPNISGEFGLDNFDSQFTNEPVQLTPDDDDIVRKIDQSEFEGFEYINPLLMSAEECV

Structure (SMILES) | tested on | assay | test system | conditions | how to read | measurement | result
CC(C)[C@H](NC(=O)[C@H](CCCNC(=N)N)NC(=O)[C@@H]1CCCN1C(=O)[C@@H](NC(=O)[C@H](C)NC(=O)[C@H](Cc1ccc(O)cc1)NC(=O)[C@H](CCC(N)=O)NC(=O)[C@H](CCCCN)NC(=O)[C@H](CCCNC(=N)N)NC(=O)[C@@H]1CCCN1C(=O)[C@H](CCC(=O)O)NC(=O)[C@@H](NC(=O)[C@H](C)N)[C@@H](C)O)[C@@H](C)O)C(=O)N[C@@H](Cc1ccccc1)C(=O)N[C@@H](Cc1c[nH]c2ccccc12)C(=O)N[C@H](C(=O)N[C@@H](CC(=O)O)C(=O)N[C@@H](C)C(=O)N1CCC[C@H]1C(=O)NCC(=O)NCCOCCOCCOCCOCCOCCOCCOCCOCCOCCOCCOCCOCCC(=O)N[C@@H](CS)C(N)=O)[C@@H](C)O | HCC95 | phage binding |  |  | reference: targeting over control phage | selectivity ratio | 0.66 ± 0.22
O=C(C[Se]C(=O)c1cc2ccccc2[nH]1)Nc1cccc(C(F)(F)F)c1 | NCI60 leukaemia subpanel | NCI60 five-dose screen |  |  |  | CC50 | 4.74 µM
COc1ccccc1-c1n[nH]c2nc(N[C@H]3CC[C@H](NS(=O)(=O)CC(C)C)CC3)ncc12 |  | bead binding, competition bead pull-down, measured: LINJ.06.1110 | Leishmania donovani extract | 10 µM | reference: vehicle | relative abundance | 0.6
CN(C)[C@H]1C[C@@]23CC[C@@]4(O2)C(=CC[C@]2(C)[C@@H](c5ccc6ccncc6c5)CC[C@H]24)C=C3[C@@H](O)[C@@H]1O | Protein kinase C iota type (PRKCI, Homo sapiens, UniProt P41743) | ATP probe labelling, inhibitor, KiNativ profiling |  | 0.1 µM |  | inhibition | -13.5%
Cc1cc(Oc2nc(N3CC[C@@H](c4ccncc4)C3)ncc2F)[nH]n1 | Caco-2 | cell proliferation | colon cancer |  |  | IC50 | 49 µM
CC(C)C[C@H](NC(=O)[C@H](CC(=O)O)NC(=O)CNC(=O)[C@@H](N)CCCNC(=N)N)C(=O)N[C@@H](C)C(=O)N[C@H](C(=O)N[C@@H](CC(C)C)C(=O)N[C@@H](CCCNC(=N)N)C(=O)N[C@@H](CCC(N)=O)C(=O)N[C@@H](CC(C)C)C(=O)N[C@@H](C)C(=O)N[C@@H](CCC(N)=O)C(=O)N[C@@H](CCC(=O)O)C(=O)N[C@@H](CC(=O)O)C(=O)NCC(=O)N[C@H](C(=O)N[C@H](C(=O)NCC(=O)N[C@H](C(=O)N[C@@H](CCCNC(=N)N)C(=O)NCCOCCOCCOCCOCCOCCOCCOCCOCCOCCOCCOCCOCCC(=O)N[C@@H](CS)C(N)=O)C(C)C)C(C)C)C(C)C)[C@@H](C)O | SKOV3 ovarian cancer | cell binding, phage binding, measured: output/input phage |  | 10 min, 37 °C | reference: control phage | selectivity ratio | 7.7 ± 4.9
O=C(O)c1ccc(-c2nc(-c3ccccc3Cl)c3sccn23)cc1 | HEL | flow cytometry |  | 0.1 mM |  | CD71-positive cells | 84.8%
CC(C)(C)C(=O)OCOP(=O)(OCOC(=O)C(C)(C)C)C1CCCN(O)C1=O (stereo not drawn) | EKVX |  |  |  |  | GI50 | 0.657 µM
CC(C)CC(O)(CC(C)C)c1cn(C(=O)N2CCCC2)nn1 | mouse T-cells | SILAC proteomics, measured: Fdx1 |  | 1 nM, 6 h, single peptides, unit not given | reference: DMSO | protein level | 0.93 and 1.09
COc1ccccc1-c1n[nH]c2nc(NC3CCN(C(=O)Cc4ccc(F)cc4F)CC3)ncc12 |  | bead binding, competition bead pull-down, measured: LINJ.28.2610 | Leishmania donovani axenic amastigote extract | 10 µM | reference: vehicle | relative abundance | 1.14
CCCCCCCCCCCC(=O)N[C@@H](CCCNC(=N)N)C(=O)N[C@@H](Cc1c[nH]c2ccccc12)C(=O)N[C@@H](CCCCN)C(=O)N[C@H](C(=O)N[C@@H](Cc1ccccc1)C(=O)N[C@@H](CCCCN)C(=O)N[C@@H](CCCCN)C(=O)N[C@H](C(=O)N[C@@H](CCC(=O)O)C(=O)N[C@@H](CCCCN)C(=O)N[C@H](C(=O)NCC(=O)N[C@@H](CCC(N)=O)C(=O)N[C@@H](CC(N)=O)C(=O)N[C@H](C(=O)N[C@@H](CCCNC(=N)N)C(=O)N[C@@H](CC(=O)O)C(=O)NCC(=O)N[C@H](C(=O)N[C@H](C(=O)N[C@@H](CCCCN)C(=O)N[C@@H](C)C(=O)NCC(=O)N1CCC[C@H]1C(=O)N[C@@H](C)C(=O)N[C@H](C(=O)N[C@@H](C)C(=O)N[C@H](C(=O)N[C@H](C(=O)NCC(=O)N[C@@H](CCC(N)=O)C(=O)N[C@@H](C)C(=O)N[C@@H](C)C(=O)N[C@H](C(=O)N[C@H](C(N)=O)[C@@H](C)CC)[C@@H](C)O)C(C)C)C(C)C)C(C)C)C(C)C)[C@@H](C)CC)[C@@H](C)CC)C(C)C)[C@@H](C)CC)[C@@H](C)CC | MX1 | trypan blue exclusion |  | 6 µM, 24 h |  | dead cells | > 80%
O=C1NC2(CC2)COc2ncc(F)cc2[C@H]2COCCN2c2ccn3ncc1c3n2 |  |  | Sprague-Dawley rat, female, liver | oral, 20 mg/kg/day, 4 weeks dosing, end of recovery |  | organ-to-brain weight ratio | 446 ± 40.4%

Some of these lines once more:
Structure (SMILES) | tested on | assay | test system | conditions | how to read | measurement | result
CC(C)[C@H](NC(=O)[C@H](CCCNC(=N)N)NC(=O)[C@@H]1CCCN1C(=O)[C@@H](NC(=O)[C@H](C)NC(=O)[C@H](Cc1ccc(O)cc1)NC(=O)[C@H](CCC(N)=O)NC(=O)[C@H](CCCCN)NC(=O)[C@H](CCCNC(=N)N)NC(=O)[C@@H]1CCCN1C(=O)[C@H](CCC(=O)O)NC(=O)[C@@H](NC(=O)[C@H](C)N)[C@@H](C)O)[C@@H](C)O)C(=O)N[C@@H](Cc1ccccc1)C(=O)N[C@@H](Cc1c[nH]c2ccccc12)C(=O)N[C@H](C(=O)N[C@@H](CC(=O)O)C(=O)N[C@@H](C)C(=O)N1CCC[C@H]1C(=O)NCC(=O)NCCOCCOCCOCCOCCOCCOCCOCCOCCOCCOCCOCCOCCC(=O)N[C@@H](CS)C(N)=O)[C@@H](C)O | HCC95 | phage binding |  |  | reference: targeting over control phage | selectivity ratio | 0.66 ± 0.22
